Experimental data collected from several papers.
A part holds a random share of what one study measured.

Set 1 — method: protein-binding microarray; form: double-stranded DNA, one strand shown; matrix: in vitro; concentration: 250 nM; notes: 60-bp whole probe; together with: salmon DNA 0.4 mg/ml; reference: random background probes; direction: higher = stronger binding; all sequences stand within: GCCTAGCAC … GTCTTGATTCGCTTGACGCTGCTG
Target: Interferon regulatory factor 5, full length, phosphomimetic (IRF5, Homo sapiens, UniProt Q13568-2, residues 1-514, K96S/S451D/S453D/S456D/S462D)
For `GACGGTATCGGTCTCGGGATGTGCTAG`, the log fluorescence was 5.54 z-score.
The log fluorescence of `CCAGGCTGAAAGACCTCTGAGTGCTAG` is reported as -0.263 z-score.
`CTTCATGTTTTTTTCTACTTGTGCTAG` has a log fluorescence of 1.48 z-score.
`AACGGACTGGGTATCGGGACGTGCTAG` gave a log fluorescence of 0.245 z-score.
`GACGGACGGCTACTGCTGACGTGCTAG` has a log fluorescence of -0.718 z-score.
`GACGGTCTCGGTTTCGGGAAGTGCTAG` has a log fluorescence of 3.83 z-score.
The log fluorescence of `GAAGGTTCCGGTTTCGGGACGTGCTAG` is reported as 4.51 z-score.
`TTAGGTATCGGTTACGGTTAGTGCTAG` gave a log fluorescence of 8.45 z-score.
For `TTAGATTTCAGTTTCGATAAGTGCTAG`, the log fluorescence was 10.1 z-score.
`TTTGGTCTCGGTTTCGGTTAGTGCTAG` has a log fluorescence of 9.1 z-score.
`TTAGAACTGAGTCTAGATTAGTGCTAG` has a log fluorescence of -0.142 z-score.
For `TTAGGTTTCGACACTGGGTTGGTGCTA`, the log fluorescence was 6.18 z-score.
With `TCAGCTCCCTTTCTCTCTGTGTGCTAG` the log fluorescence was 0.732 z-score.
`TCATGGTCCTCTCTCTAACTGTGCTAG` has a log fluorescence of -0.128 z-score.
The log fluorescence of `TTAGGTTTCGGGACTGGGGTAGTGCTA` is reported as 5.96 z-score.
The log fluorescence of `GACGTACTGGGACTGGGGACGTGCTAG` is reported as -0.589 z-score.
`GACGGAGTGGGTCTCGGGACGTGCTAG` has a log fluorescence of -0.516 z-score.
The log fluorescence of `GACGGACTGCTTTTGCTGACGTGCTAG` is reported as -0.105 z-score.
For `GACGAGTTCAGTTCCGAGACGTGCTAG`, the log fluorescence was -0.0424 z-score.

Set 2 — method: protein binding microarray; form: double-stranded DNA, one strand shown; matrix: in vitro; concentration: not given; reference: not given; direction: higher = stronger binding
Target: Histone acetyltransferase KAT6A, both winged helices, GST fusion (KAT6A, Homo sapiens, UniProt Q92794, residues 1-181)
Notes: 8-mer, flanks averaged, mean of 2 arrays, mostly near background
Residues (chain): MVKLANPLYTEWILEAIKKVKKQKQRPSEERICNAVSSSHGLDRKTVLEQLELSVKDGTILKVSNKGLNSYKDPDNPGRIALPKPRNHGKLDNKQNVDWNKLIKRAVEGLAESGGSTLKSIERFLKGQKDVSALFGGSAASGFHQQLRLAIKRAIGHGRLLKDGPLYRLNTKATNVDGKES
The E-score of `CGAATGCA` is reported as 0.00133.
For `ATTTGTAG`, the E-score was -0.144.
`GCGTAAAA` gave an E-score of 0.142.
`GCTACGCC` has an E-score of 0.188.
The E-score of `TAACCCGA` is reported as 0.222.
`ACAACGAA` has an E-score of -0.0606.
`AGGCGTGC` gave an E-score of 0.068.
For `ATATGGGG`, the E-score was -0.079.
The E-score of `AGAGGAAG` is reported as -0.223.
`CCCTTACG` has an E-score of 0.0138.
For `ATCCATTC`, the E-score was -0.0983.
The E-score of `AAACGGAC` is reported as 0.0669.
`AGTGCTCA` gave an E-score of -0.225.
For `AAGTTCGA`, the E-score was -0.0462.
The E-score of `CCGACCTC` is reported as -0.0385.
`TTATCGAA` gave an E-score of -0.0211.
`CATCGTCA` gave an E-score of -0.113.

Set 3 — method: RNAcompete; form: RNA; matrix: in vitro; concentration: 20 nM; notes: 7-mer, probes averaged, single round; reference: mean of 7-mers; direction: higher = stronger binding
Target: PABPC1L2, full length, GST fusion (mouse, UniProt A0ABA7IW68)
Residues (chain): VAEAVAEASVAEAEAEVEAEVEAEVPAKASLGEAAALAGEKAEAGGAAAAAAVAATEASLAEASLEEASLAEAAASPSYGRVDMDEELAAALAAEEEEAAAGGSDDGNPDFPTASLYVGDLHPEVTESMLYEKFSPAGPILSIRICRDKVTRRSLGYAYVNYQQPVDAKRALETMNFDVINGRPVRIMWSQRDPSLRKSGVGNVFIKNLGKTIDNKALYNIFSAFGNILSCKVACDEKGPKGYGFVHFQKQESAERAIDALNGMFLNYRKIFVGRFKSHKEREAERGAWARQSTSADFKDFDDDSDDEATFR
`UGCGUUU` gave a 7-mer Z-score of -0.45.
The 7-mer Z-score of `UAGUUAA` is reported as -0.133.
With `GGGGCAU` the 7-mer Z-score was 0.514.
With `GAGUUCC` the 7-mer Z-score was -0.277.
For `UUGAGAU`, the 7-mer Z-score was -0.124.
For `GCGGCCC`, the 7-mer Z-score was -0.344.
With `GGUUCUU` the 7-mer Z-score was -0.289.
With `AUCCGGC` the 7-mer Z-score was -0.26.
`GUCCACA` has a 7-mer Z-score of -0.293.
`AUCCUCU` has a 7-mer Z-score of -0.3.
With `AUUCCAA` the 7-mer Z-score was -0.0192.
With `GGUUCGC` the 7-mer Z-score was -0.358.
`ACUGCAA` has a 7-mer Z-score of 0.111.
For `UGCUUGU`, the 7-mer Z-score was -0.454.
`GGGUGCG` has a 7-mer Z-score of 0.427.
For `CCUGUUG`, the 7-mer Z-score was -0.479.
With `CUCCGCG` the 7-mer Z-score was -0.371.
With `UUUCAGU` the 7-mer Z-score was -0.345.
The 7-mer Z-score of `CCAUACG` is reported as -0.204.

Set 4 — method: universal PBM; form: double-stranded DNA, one strand shown; matrix: in vitro; concentration: 600 nM; direction: higher = stronger binding
Target: Sal-like protein 4, full length isoform A (SALL4, Homo sapiens, UniProt Q9UJQ4, residues 1-1053)
UniProt Q9UJQ4, sequence (whole entry, looked up): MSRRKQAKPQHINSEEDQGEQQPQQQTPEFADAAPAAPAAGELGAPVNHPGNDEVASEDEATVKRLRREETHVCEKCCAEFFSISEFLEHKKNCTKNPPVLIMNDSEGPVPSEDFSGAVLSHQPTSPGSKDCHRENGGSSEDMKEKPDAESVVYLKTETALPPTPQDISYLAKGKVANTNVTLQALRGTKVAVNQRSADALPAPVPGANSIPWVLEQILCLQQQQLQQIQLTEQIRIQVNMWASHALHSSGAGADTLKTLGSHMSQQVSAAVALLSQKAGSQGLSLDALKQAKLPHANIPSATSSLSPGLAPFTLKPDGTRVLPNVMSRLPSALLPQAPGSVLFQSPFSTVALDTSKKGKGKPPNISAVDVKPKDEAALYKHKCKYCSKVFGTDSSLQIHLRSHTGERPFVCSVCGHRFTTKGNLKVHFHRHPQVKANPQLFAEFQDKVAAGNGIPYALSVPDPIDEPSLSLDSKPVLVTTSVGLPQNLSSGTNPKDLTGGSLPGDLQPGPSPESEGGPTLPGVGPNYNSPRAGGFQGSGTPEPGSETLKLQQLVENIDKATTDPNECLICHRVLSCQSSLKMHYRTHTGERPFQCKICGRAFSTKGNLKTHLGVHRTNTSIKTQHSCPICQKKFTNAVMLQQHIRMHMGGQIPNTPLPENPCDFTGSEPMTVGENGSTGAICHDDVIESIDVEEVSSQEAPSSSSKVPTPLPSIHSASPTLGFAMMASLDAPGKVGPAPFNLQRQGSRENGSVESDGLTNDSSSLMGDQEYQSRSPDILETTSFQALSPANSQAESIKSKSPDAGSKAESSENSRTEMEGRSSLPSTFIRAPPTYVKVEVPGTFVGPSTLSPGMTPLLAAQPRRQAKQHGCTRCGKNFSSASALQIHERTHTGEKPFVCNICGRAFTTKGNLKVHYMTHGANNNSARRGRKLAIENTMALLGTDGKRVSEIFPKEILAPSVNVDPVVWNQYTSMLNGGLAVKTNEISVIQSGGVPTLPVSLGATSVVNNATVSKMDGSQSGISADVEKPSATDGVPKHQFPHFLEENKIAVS
Notes: 8-mer, flanks averaged, mean of replicates
For `GTAAAAAC`, the E-score was 0.204.
For `CTTCGAAA`, the E-score was 0.0894.
With `CGAAAGAC` the E-score was -0.0389.
For `AGTATTAA`, the E-score was 0.351.
`GTTTCGAA` has an E-score of 0.0478.
For `ATGAGACG`, the E-score was -0.0805.
With `CGGCCTAA` the E-score was -0.17.
`CAAGAACG` gave an E-score of -0.00293.
The E-score of `ATGCCCAC` is reported as -0.164.
With `AGGTAGCG` the E-score was -0.16.
For `CTTCTTCC`, the E-score was -0.14.
The E-score of `ATAACCGA` is reported as 0.229.
For `GCGACTTA`, the E-score was -0.0648.
For `TATTCCCA`, the E-score was 0.144.
`TGTAAGAA` has an E-score of 0.195.
`AGTTGGTG` has an E-score of -0.272.

Set 5 — method: RNA Bind-n-Seq; form: RNA; matrix: in vitro; concentration: not given; reference: input RNA pool; direction: higher = stronger binding
Target: RING finger protein unkempt homolog, zinc fingers 1-6, GST-SBP tag (UNK, Homo sapiens, UniProt Q9C0B0, residues 30-357)
Notes: RNA with constant flanks, human and mouse sites, ends assumed
All sequences stand within: GGGAGUUCUACAGUCCGACGAUC … CAACAGAGGAUUGAGCAUCA
Residues (chain): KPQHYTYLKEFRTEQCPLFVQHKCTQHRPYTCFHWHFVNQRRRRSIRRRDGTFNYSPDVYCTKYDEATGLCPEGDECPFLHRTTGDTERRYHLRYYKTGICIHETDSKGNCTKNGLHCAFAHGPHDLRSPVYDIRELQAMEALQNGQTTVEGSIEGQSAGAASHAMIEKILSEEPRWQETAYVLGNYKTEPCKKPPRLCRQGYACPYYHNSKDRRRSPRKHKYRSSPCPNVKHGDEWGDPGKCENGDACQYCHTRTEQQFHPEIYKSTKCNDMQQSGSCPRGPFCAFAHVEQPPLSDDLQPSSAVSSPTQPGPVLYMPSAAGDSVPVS
For `CUGAAAUCUGUGGAGAGCACAUCUCCAGAGCCAUCAAAGAUCAUGUUGGUAGAGCCCCCAGUAGCAAAAGUGUUAGAGCCUUCAGAAACCCUUGUGGUAUCAUCAGAGACACCUACUGAG`, the bound/input enrichment was 0.363 ratio.
With `GGAGGGUCGCAGUCCCUGCAGCCAGCCCCAGCCAGCGACCUGAACCUGGAGGCUUCCGAGGCAAUGAGUUCCGAUUCUGAAGAGGCAUUUGAGACCCCGGAGUCAACGACCCCUGUCAAA` the bound/input enrichment was 0.0755 ratio.
With `GUAAAUCAUAUGGAUGGAGAAAGCCUCAAACUCCGAUCUCUUCGAGUUAACGUAGGACAACUGCUGGCUAUGAUUGUGCCUGAUCUUGAUCUUCAGCAAGUGAAUUACGAUGUUGAUGUA` the bound/input enrichment was 0.211 ratio.
`AAAUAUUUUGAGAAUUCAGCUGAAACAGACAUUCCAAAAAUCACCAAAAAACUAUCUCAACUAGGAGAAUCAGAGCUUUUUGCAAGUUCUGGAUCAUUUUCAUUACAGAGCUCUAUACCA` gave a bound/input enrichment of 0.63 ratio.
`CACUCCCUCCCUCUAACAGCAGGCUGUGUGGGUUUCAAUUCCCAUCCUCCCCACCCUGGCUAGGUGUCGUCCACCCUGUAUCCUAUCAUGUGUCUGUGUGUGGGGGGGUUCUGUACUAAU` gave a bound/input enrichment of 0.218 ratio.
`ACUGAGGAACAGAAGGGCCGAGUGGCCUUUGCUUCCAAUUUCCUGGCAGGAGAUGCCUCCUUGCAGAUUGAACCUCUGAAGCCCAGUGAUGAGGGCCGGUACACCUGUAAGGUUAAGAAU` has a bound/input enrichment of 0.127 ratio.
`GAGAGGACGCUGGGACUCAGCAGCCCAUGUGACAACAGGGUUCCAGCACAGCAGCUGUAUUUUACCACCCCUUCCAACCAGAAUGUAUACCAGGUGGACUCUCUGCAAUCUACGUGAAAG` gave a bound/input enrichment of 0.248 ratio.
For `GUCAGGACCUGGGUGGGUGGUCCUGAAUGCUUGGCUGGUGGGUUUGGGAGGAUGUGGAGCUAUAGAGGCCUACUCUGCUUCCUAGGUCUCGAAGUCCUCGGAAGCCAAUAGACUCCCUUC`, the bound/input enrichment was 0.237 ratio.
